Results of several laboratories.
± gives the spread as reported.
ampC: Beta-lactamase (ampC, Escherichia coli K-12, UniProt P00811)
UniProt P00811, sequence (whole entry, looked up): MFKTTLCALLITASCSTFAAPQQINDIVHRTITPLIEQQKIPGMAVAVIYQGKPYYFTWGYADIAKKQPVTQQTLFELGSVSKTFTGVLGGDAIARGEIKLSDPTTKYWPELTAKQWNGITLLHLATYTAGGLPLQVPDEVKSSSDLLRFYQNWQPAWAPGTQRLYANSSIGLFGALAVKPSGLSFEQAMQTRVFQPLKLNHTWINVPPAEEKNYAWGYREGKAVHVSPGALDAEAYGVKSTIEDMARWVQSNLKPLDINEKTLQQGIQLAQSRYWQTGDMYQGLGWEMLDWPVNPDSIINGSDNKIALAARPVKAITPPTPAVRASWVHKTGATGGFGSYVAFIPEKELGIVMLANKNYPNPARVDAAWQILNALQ
ADRB2: Beta-2 adrenergic receptor (ADRB2, Homo sapiens, UniProt P07550)
UniProt P07550, sequence (whole entry, looked up): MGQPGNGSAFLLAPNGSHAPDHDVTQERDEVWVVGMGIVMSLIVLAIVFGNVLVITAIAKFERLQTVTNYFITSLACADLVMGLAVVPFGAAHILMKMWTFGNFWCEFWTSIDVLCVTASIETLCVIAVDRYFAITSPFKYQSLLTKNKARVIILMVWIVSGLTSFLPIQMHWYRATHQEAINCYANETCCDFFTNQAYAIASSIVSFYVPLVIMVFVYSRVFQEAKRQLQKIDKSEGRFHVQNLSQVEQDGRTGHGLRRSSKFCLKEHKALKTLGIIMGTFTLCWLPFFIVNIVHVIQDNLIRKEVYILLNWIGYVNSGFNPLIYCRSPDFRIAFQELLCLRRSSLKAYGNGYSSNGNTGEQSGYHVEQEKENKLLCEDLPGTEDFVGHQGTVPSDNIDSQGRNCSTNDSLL
prp N63Q: Ribosomal processing cysteine protease Prp (prp, Staphylococcus aureus, UniProt Q2FXS9, N63Q)
F2: Prothrombin (F2, Homo sapiens, UniProt P00734)
UniProt P48730, sequence (whole entry, looked up): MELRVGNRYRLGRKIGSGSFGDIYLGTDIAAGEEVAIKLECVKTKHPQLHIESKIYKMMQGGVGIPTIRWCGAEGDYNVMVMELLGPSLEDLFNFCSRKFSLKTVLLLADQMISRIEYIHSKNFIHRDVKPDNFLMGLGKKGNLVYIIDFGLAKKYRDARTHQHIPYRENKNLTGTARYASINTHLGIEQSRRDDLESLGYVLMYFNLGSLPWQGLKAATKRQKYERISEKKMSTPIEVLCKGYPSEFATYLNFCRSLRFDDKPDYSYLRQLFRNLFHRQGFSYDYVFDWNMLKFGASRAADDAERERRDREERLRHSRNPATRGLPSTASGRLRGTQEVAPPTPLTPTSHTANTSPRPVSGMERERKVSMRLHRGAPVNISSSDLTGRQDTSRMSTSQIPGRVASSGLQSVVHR
UniProt O60741, sequence (whole entry, looked up): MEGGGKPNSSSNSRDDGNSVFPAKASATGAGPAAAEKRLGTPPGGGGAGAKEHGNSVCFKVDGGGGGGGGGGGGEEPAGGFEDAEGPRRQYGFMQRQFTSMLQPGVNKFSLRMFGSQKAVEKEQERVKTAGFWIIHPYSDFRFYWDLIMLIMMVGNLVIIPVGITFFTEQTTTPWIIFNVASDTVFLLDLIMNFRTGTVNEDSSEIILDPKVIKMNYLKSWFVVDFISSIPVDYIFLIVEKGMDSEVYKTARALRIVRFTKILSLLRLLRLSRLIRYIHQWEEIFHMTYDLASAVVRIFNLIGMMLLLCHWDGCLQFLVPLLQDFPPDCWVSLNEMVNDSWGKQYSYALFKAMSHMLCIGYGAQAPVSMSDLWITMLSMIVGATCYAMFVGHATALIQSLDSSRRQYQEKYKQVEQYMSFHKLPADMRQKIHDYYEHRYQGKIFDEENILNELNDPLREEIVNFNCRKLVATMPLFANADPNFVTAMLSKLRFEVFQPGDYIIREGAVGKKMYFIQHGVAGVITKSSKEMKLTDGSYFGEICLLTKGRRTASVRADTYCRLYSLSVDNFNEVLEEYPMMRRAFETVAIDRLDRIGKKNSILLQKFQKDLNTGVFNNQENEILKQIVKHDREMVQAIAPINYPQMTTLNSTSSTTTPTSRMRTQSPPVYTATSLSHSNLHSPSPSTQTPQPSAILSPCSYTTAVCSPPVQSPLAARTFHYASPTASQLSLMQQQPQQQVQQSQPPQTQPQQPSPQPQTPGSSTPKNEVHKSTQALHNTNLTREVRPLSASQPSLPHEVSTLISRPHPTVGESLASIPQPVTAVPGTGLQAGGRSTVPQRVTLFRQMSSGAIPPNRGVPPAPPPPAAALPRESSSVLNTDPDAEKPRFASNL
UniProt P05067, sequence (whole entry, looked up): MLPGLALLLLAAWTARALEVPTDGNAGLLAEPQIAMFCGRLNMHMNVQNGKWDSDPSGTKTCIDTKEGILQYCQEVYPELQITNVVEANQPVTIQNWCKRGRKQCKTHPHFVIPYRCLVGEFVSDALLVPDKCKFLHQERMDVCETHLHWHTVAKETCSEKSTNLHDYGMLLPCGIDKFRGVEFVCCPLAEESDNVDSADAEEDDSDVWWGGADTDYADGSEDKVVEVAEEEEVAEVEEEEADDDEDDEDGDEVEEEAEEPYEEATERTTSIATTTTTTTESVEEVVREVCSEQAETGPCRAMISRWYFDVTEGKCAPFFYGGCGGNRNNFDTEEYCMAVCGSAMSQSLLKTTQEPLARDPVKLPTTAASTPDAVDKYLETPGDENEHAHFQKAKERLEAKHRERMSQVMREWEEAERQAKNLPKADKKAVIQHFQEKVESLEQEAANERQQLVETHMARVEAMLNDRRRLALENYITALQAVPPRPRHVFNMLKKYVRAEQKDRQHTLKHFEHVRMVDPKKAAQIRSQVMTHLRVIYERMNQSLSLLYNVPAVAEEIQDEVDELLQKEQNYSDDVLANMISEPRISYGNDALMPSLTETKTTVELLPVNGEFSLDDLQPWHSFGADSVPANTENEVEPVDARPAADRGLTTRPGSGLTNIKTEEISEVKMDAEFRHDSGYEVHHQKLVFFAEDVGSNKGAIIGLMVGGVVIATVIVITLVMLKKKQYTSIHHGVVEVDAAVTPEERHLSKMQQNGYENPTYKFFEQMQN
UniProt Q09013, sequence (whole entry, looked up): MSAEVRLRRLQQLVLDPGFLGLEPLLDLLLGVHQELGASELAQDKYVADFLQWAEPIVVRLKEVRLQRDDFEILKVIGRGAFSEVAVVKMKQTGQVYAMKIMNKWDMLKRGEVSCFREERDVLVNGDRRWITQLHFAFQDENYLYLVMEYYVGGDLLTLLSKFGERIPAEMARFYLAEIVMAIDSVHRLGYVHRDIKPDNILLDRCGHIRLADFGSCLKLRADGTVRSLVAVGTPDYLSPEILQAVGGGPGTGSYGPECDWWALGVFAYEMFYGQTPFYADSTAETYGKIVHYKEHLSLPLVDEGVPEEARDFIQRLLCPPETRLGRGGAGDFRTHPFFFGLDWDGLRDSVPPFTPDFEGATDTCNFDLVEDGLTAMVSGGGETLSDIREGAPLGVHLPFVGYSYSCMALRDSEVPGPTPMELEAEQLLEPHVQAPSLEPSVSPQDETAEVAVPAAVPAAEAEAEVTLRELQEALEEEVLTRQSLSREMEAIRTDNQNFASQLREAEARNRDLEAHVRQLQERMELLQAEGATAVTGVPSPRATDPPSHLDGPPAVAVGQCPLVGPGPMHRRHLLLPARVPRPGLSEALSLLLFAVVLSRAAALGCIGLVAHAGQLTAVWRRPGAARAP
UniProt Q9QYN8, sequence (whole entry, looked up): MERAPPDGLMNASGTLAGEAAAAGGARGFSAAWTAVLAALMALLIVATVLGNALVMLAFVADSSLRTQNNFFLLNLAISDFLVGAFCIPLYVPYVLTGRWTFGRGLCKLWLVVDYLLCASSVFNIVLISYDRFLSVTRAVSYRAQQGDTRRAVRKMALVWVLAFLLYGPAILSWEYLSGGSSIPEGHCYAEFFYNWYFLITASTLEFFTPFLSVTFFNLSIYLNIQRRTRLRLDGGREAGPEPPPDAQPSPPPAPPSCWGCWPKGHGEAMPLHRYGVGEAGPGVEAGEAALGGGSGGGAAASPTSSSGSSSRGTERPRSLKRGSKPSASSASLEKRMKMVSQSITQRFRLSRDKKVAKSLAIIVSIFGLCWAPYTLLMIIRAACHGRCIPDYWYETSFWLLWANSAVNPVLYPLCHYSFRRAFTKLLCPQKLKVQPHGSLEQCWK
UniProt Q8R2Y0, sequence (whole entry, looked up): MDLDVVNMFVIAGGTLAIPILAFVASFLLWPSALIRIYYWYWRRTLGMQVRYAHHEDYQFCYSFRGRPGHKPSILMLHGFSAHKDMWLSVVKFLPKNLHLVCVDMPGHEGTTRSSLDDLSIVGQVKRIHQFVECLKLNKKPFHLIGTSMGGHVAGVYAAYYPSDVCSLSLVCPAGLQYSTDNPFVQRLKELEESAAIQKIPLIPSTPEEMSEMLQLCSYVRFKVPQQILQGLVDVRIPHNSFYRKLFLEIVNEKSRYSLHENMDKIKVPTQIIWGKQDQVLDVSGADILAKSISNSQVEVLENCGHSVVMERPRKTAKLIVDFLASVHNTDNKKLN

Structure (SMILES)	target	test	test system	setting	inhibition
Clc1ccc2[nH]c3c(NCCCN4CCOCC4)ncnc3c2c1	ampC	enzyme activity, inhibitor		100 µM, added: CENTA substrate	0%
CNCCCC12CCC(c3ccccc31)c1ccccc12	Potassium/sodium hyperpolarization-activated cyclic nucleotide-gated channel 1 (Homo sapiens, UniProt O60741)	ion current		10 µM	2.79%
O=c1ccc2ccccc2o1	ADRB2	antagonist radioligand binding		10 µM, SafetyScreen44	-1.17%
C[C@H](NC(=O)Cc1cc(F)cc(F)c1)C(=O)N[C@@H]1C(=O)N(C)c2ccccc2-c2ccccc21	prp N63Q	enzyme activity		10 µM, 21.4 nM enzyme dimer, added: 0.5 µM FITC-labelled peptide substrate	-15.5 ± 6.6%
CC(C)(C)OC(=O)N1CCN(C(=O)n2cc(-c3ccc(OC(F)(F)F)cc3)nn2)C(Cc2ccccc2)C1 (stereo not shown)	Abhd6 (Mus musculus, UniProt Q8R2Y0)	enzyme activity	N2a membrane proteome	30 nM	54%
CC(C)(C)C(=O)Oc1ccc(S(=O)(=O)Nc2ccccc2C(=O)NCC(=O)O)cc1	prp N63Q	enzyme activity, inhibitor		10 µM, prp 21.4 nM, added: FITC peptide substrate 0.5 µM	39.2 ± 9%
COc1cc(Nc2ncc(F)c(Nc3ccc4c(n3)NC(=O)C(C)(C)O4)n2)cc(OC)c1OC	DMPK (Homo sapiens, UniProt Q09013)	KINOMEscan		10 µM	89%
Cc1cccc(COc2cccc(C(=O)Nc3ccc4c(c3)B(O)OC4)c2)c1	F2	enzyme activity		50 µM, added: substrate 50 µM	≤ 10%
CN(CCN1CCC(OC(=O)Nc2ccccc2-c2ccccc2)CC1)C(=O)c1ccc(CN2CCC(C(N)=O)CC2)cc1	rat 5-HT receptor non-selective	radioligand binding		1 µM, added: [3H]serotonin 2.0 nM	3%
CNC(=O)[C@H](Cc1c[nH]c2ccccc12)NC(=O)[C@@H](CC(=O)NO)CC(C)C	prp N63Q	enzyme activity, inhibitor		10 µM, prp 21.4 nM, added: FITC peptide substrate 0.5 µM	24.3 ± 12.2%
C[C@@H](NC(=O)[C@@H](N)Cc1ccc(O)cc1)C(=O)NCC(=O)N[C@@H](Cc1ccccc1)C(=O)N(C)CCC[C@@]1(c2ccc(F)cc2)OCc2cc(C#N)ccc21	ADRA2A (Homo sapiens, UniProt P08913)			10 µM	< 50%
CCCCCC(=O)Nc1ccc2c(c1)B(O)OC2	F2	enzyme activity		50 µM, added: substrate 50 µM	≤ 10%
Cc1cc(C)nc(NC(=N)NCCc2c[nH]c3ccc(F)cc23)n1	ampC	enzyme activity, inhibitor		up to 10 µM, colloidal aggregation counterscreen, added: 0.1% DMSO	no inhibition
CN(C(=O)n1cnc(-c2ccc[n+]([O-])c2)c1)C1CCCCC1	HIPK2 (Homo sapiens, UniProt Q9H2X6)	kinase activity, inhibitor		50 µM, added: myelin basic protein substrate	0%
COc1ccc(N2C(=O)N(c3c(C)cccc3Cl)Cc3cnc(Nc4ccc(C5CCN(C)CC5)cc4OC)nc32)nc1	PRKCG (Homo sapiens, UniProt P05129)	kinase activity, inhibitor		0.5 µM, kinase PKC-GAMMA	-0.33%
CN1CCN(c2cc(-c3ccncc3)c(-c3ccc4ccccc4c3)nn2)CC1	ADRB2	antagonist, FLIPR		10 µM	21%
O=C(O)CC[C@H]1CC[C@@](c2cc(F)ccc2F)(S(=O)(=O)c2ccc(Cl)cc2)CC1	prp N63Q	enzyme activity, inhibitor		10 µM, prp 21.4 nM, added: FITC peptide substrate 0.5 µM	30.9 ± 9.5%

Structure (SMILES)	target	test	test system	setting	inhibition
CC(C)N1CCC[C@H]1CNC(=O)c1cn(C2CCCC2)c(=O)c2c1c1ccccc1n2C	imidazoline I2 receptor, rat brain	radioligand binding		10 µM	15%
CC(=O)NC[C@H]1[C@H](O)[C@H](O)[C@@H]2[C@H](O)C[C@@H](CO)N21	human placental β-N-acetylglucosaminidase			0.000805 µM, run 1, added: p-nitrophenyl GlcNAc	12%
FC(F)(F)c1cccc(Nc2nc(NCCOc3ccccc3)nc3[nH]cnc23)c1	CSNK1D (Homo sapiens, UniProt P48730)	enzyme activity, inhibitor, Thermo Fisher kinase screening		5 µM	9%
CC[C@H](C)[C@H](NC(=O)[C@@H](NC(=O)[C@H](N)Cc1ccccc1)C(C)C)C(=O)N[C@@H](C)C(N)=O	APP (Homo sapiens, UniProt P05067)	amyloid-beta aggregation, thioflavin T fluorescence		1.0 µM, 96 h, added: 2 µM amyloid-beta	76%
O=C(Nc1cccc(B(O)O)c1)c1cccc(OCc2ccccc2)c1	F2	enzyme activity		50 µM, added: substrate 50 µM	≤ 10%
O=[N+]([O-])C(Br)(CO)CO	Luciferin 4-monooxygenase (Photinus pyralis, UniProt P08659)	luciferase luminescence, inhibitor	cell-free	50 µM, counter-screen	12.8%
O=C(Nc1cnccc1Cl)N1CCN(Cc2ccc3c(c2)OC(F)(F)O3)CC1	AMPA receptor, rat	binding		10 µM, added: [3H]AMPA	11%
CC(C)C[C@H](NC(=O)[C@H](Cc1ccccc1)NC(=O)c1cnccn1)B(O)O	prp N63Q	enzyme activity, inhibitor		10 µM, prp 21.4 nM, added: FITC peptide substrate 0.5 µM	4.1 ± 6.8%
COCc1c(-c2cc3cc(C)cc(OC)c3s2)c2c(N)ncnn2c1CN1CCNC(=O)C1	NMDA receptor agonist site	radioligand binding		10 µM	14%
CC(C)(C)NC(=O)N[C@H](C(=O)N1C[C@H]2[C@@H]([C@H]1C(=O)NC(CC1CCC1)C(=O)C(N)=O)C2(C)C)C(C)(C)C (stereo partly shown)	prp N63Q	enzyme activity, inhibitor		10 µM, prp 21.4 nM, added: FITC peptide substrate 0.5 µM	-11.6 ± 6.6%
O=C(Nc1cccnn1)N1CCC(=Cc2cccc(Oc3ccc(C(F)(F)F)cn3)c2)CC1	CAMK2D (Homo sapiens, UniProt Q13557)	enzyme activity, inhibitor		10 µM, added: autocamtide-2	6%
C[C@H]1N=C(c2ccccc2F)c2cc(Br)ccc2-n2cnc(C(=O)O)c21	GABA-A receptor GABA site	binding		10 µM	34.6 ± 10.9%
COC([CH2][Hg+])CNC(=O)c1ccccc1OCC(=O)O.[OH-] (stereo not shown)	prp N63Q	enzyme activity		10 µM, 21.4 nM enzyme dimer, added: 0.5 µM FITC-labelled peptide substrate	104.5 ± 0.5%
O=C(Nc1ccc2c(c1)B(O)OC2)c1cccc(OCc2ccccc2)c1	F2	enzyme activity		50 µM, added: substrate 50 µM	≤ 10%
C[C@@H](N)Cc1c[nH]cn1	Hrh3 (Rattus norvegicus, UniProt Q9QYN8)	binding		1 × 10 µM	87.5%
O=C(Nc1ccc2c(c1)B(O)OC2)c1ccc(Oc2ccccc2)cc1	F2	enzyme activity		50 µM, added: substrate 50 µM	≤ 10%
N#C[C@@H]1CCCN1C(=O)CNC12CC3CC(CC(O)(C3)C1)C2	prp N63Q	enzyme activity, inhibitor		10 µM, prp 21.4 nM, added: FITC peptide substrate 0.5 µM	32.5 ± 13.1%

For quick reference, copied from above:
Structure (SMILES)	target	test	test system	setting	inhibition
C[C@@H](N)Cc1c[nH]cn1	Hrh3 (Rattus norvegicus, UniProt Q9QYN8)	binding		1 × 10 µM	87.5%
O=C(Nc1ccc2c(c1)B(O)OC2)c1ccc(Oc2ccccc2)cc1	F2	enzyme activity		50 µM, added: substrate 50 µM	≤ 10%
